{"data": "Assay results gathered from unrelated publications", "note": "Each line is one published result; not all experiments were run side by side. Values joined by “and” are separate records of one study, mostly repeats; a detail may differ. ± gives the spread as reported.", "sequence of UniProt P41143 (whole entry, looked up)": "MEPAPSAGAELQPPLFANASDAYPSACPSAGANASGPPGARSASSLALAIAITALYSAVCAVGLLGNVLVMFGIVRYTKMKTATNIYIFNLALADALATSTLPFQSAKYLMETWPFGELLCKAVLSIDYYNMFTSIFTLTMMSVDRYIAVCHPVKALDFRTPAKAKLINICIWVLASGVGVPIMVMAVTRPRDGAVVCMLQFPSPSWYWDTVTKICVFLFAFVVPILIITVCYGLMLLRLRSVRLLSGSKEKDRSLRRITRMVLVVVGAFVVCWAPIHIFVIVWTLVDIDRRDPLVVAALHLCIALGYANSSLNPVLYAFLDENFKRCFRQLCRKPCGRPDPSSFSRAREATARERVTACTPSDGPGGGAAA", "sequence of UniProt P9WI81 (whole entry, looked up)": "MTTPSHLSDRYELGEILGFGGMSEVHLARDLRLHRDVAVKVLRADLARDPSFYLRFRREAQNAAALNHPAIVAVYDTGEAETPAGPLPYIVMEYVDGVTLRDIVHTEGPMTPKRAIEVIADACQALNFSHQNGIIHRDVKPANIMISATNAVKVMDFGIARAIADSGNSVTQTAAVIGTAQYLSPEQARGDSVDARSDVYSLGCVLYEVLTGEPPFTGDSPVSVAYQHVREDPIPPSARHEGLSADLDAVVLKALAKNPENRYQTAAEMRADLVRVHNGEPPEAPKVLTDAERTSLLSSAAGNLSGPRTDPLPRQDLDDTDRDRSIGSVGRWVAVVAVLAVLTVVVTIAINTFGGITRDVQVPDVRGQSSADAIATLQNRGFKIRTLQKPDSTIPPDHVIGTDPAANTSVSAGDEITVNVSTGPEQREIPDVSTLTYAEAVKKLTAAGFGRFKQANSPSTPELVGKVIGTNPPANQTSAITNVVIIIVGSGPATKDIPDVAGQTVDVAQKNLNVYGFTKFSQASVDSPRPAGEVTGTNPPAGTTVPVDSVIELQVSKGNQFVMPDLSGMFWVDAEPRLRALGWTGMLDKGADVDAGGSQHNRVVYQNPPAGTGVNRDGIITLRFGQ"}
{"Structure (SMILES)": "C=CCN1C(=O)C(O)(C(=O)O)Oc2cc(F)ccc21 (centres unmarked)", "target or system": "Arabidopsis thaliana", "assay": "root length", "test system": "Col-0", "setting": "100 µg/mL, 7 days, seed germination, dark", "endpoint": "inhibition", "value": "52.3%"}
{"Structure (SMILES)": "O=C(Nc1ccccc1)Nc1cccc(Oc2ccc3nccn3n2)c1", "target or system": "pknB (Mycobacterium tuberculosis, UniProt P9WI81)", "assay": "binding", "setting": "1 µM", "endpoint": "remaining binding", "value": "72%"}
{"Structure (SMILES)": "CC(C)(C)n1nc(-c2ccc(Cl)cc2)c2c(N)ncnc21", "target or system": "L929", "assay": "necroptosis protection, CCK-8", "setting": "0.078 µM, with: TNF-α-induced", "endpoint": "viability", "value": "31.7%"}
{"Structure (SMILES)": "Cn1cc(-c2cccc(CN3CCC4(CC3)COc3c4ccc4c3CN([C@H]3CCC(=O)NC3=O)C4=O)c2)cn1", "target or system": "Caco-2", "setting": "concentration not given", "endpoint": "permeability (apical to basolateral)", "value": "2.4%"}
{"Structure (SMILES)": "O=[N+]([O-])c1ccc(C2=NOC3(NC(c4ccccc4)=NO3)N2c2ccccc2)cc1 (centres unmarked)", "target or system": "Plasmodium falciparum", "test system": "SB1-A6 atovaquone-resistant", "scale": "baseline: IC50 SB1-A6 over 3D7", "endpoint": "resistance index", "value": "> 300 and 333"}
{"Structure (SMILES)": "COc1cc(C(=O)OCCCN2CCCN(CCCOC(=O)c3cc(OC)c(OC)c(OCc4ccc([N+](=O)[O-])cc4)c3)CC2)cc(OC)c1OC", "test system": "male CD-1 mouse, brain", "setting": "subcutaneous, 30 mg/kg, 24 h", "endpoint": "concentration", "value": "3.27 ng/mL"}
{"Structure (SMILES)": "Cc1cc(-c2cnc(N)c3c(-c4ccc5scnc5c4)csc23)n(C)n1", "target or system": "L929", "test system": "MEM 10% FBS", "setting": "12.5 µM", "endpoint": "viability", "value": "39.7% and 41.5% and 44.9% and 33.7%"}
{"Structure (SMILES)": "N=C(N)NCCCCCCN1CCC23c4c5ccc(O)c4OC2c2nc4ccccc4cc2CC3(O)C1C5 (centres unmarked)", "target or system": "Delta-type opioid receptor, with Gi2 (OPRD1, Homo sapiens, UniProt P41143)", "test system": "human cells", "endpoint": "Emax", "value": "74 ± 4%"}
{"note": "A few entries again:"}
{"Structure (SMILES)": "CC(C)(C)n1nc(-c2ccc(Cl)cc2)c2c(N)ncnc21", "target or system": "L929", "assay": "necroptosis protection, CCK-8", "setting": "0.078 µM, with: TNF-α-induced", "endpoint": "viability", "value": "31.7%"}
